# Measurements collected from several papers.
# Each numbered part is a random draw from the data of one study; scales do not carry over between parts.
# Sequence of UniProt P11802 (whole entry, looked up): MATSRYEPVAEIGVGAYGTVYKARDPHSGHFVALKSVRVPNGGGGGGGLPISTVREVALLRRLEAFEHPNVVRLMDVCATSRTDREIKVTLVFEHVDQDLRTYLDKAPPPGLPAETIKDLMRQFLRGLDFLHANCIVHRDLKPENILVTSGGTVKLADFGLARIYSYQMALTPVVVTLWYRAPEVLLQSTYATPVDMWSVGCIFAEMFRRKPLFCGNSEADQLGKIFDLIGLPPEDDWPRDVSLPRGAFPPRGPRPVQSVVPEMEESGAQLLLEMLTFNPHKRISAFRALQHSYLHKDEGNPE
# Sequence of UniProt Q00535 (whole entry, looked up): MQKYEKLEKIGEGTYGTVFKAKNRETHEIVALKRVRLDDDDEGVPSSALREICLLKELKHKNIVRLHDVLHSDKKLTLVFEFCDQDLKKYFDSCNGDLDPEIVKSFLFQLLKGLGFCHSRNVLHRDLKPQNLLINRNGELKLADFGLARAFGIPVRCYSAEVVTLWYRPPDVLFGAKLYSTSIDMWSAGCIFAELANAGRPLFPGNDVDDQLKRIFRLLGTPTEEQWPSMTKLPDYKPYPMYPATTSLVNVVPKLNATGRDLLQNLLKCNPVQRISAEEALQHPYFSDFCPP
# Sequence of UniProt P53355 (whole entry, looked up): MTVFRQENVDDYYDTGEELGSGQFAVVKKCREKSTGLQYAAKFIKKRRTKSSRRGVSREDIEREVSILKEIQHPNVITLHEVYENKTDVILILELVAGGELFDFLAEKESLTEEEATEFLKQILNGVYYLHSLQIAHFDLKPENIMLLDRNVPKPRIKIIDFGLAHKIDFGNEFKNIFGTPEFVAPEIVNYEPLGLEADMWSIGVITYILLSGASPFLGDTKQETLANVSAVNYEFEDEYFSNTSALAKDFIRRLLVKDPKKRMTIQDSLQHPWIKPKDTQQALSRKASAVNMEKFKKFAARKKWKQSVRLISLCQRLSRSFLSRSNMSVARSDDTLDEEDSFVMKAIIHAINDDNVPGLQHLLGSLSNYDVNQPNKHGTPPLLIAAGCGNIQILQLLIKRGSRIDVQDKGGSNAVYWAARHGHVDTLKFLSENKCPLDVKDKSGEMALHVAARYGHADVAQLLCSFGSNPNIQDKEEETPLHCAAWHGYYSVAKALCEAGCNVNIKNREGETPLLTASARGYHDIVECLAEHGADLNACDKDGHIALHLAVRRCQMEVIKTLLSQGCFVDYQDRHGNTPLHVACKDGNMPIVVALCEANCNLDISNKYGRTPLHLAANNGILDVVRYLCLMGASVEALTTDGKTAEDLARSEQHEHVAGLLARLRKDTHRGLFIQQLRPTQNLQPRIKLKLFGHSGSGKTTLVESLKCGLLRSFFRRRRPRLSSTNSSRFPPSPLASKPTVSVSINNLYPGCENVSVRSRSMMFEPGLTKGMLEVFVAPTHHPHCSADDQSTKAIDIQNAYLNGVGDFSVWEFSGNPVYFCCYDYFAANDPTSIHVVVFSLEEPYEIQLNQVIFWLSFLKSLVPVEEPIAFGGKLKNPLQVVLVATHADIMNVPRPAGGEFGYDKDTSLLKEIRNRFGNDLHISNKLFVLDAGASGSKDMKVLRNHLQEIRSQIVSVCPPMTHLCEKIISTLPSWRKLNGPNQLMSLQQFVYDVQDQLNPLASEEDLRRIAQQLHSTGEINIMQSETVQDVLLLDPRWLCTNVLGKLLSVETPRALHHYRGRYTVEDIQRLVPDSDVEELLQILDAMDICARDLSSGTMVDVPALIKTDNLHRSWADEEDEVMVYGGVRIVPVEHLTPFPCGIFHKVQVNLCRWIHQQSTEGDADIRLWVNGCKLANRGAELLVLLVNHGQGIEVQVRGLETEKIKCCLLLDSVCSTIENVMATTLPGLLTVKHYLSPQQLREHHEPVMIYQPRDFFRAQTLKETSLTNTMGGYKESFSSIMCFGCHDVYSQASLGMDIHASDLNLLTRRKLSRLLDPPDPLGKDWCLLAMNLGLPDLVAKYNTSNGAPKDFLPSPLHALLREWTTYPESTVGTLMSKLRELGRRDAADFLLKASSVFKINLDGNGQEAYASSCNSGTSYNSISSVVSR
# Sequence of UniProt P00519 (whole entry, unmodified, looked up): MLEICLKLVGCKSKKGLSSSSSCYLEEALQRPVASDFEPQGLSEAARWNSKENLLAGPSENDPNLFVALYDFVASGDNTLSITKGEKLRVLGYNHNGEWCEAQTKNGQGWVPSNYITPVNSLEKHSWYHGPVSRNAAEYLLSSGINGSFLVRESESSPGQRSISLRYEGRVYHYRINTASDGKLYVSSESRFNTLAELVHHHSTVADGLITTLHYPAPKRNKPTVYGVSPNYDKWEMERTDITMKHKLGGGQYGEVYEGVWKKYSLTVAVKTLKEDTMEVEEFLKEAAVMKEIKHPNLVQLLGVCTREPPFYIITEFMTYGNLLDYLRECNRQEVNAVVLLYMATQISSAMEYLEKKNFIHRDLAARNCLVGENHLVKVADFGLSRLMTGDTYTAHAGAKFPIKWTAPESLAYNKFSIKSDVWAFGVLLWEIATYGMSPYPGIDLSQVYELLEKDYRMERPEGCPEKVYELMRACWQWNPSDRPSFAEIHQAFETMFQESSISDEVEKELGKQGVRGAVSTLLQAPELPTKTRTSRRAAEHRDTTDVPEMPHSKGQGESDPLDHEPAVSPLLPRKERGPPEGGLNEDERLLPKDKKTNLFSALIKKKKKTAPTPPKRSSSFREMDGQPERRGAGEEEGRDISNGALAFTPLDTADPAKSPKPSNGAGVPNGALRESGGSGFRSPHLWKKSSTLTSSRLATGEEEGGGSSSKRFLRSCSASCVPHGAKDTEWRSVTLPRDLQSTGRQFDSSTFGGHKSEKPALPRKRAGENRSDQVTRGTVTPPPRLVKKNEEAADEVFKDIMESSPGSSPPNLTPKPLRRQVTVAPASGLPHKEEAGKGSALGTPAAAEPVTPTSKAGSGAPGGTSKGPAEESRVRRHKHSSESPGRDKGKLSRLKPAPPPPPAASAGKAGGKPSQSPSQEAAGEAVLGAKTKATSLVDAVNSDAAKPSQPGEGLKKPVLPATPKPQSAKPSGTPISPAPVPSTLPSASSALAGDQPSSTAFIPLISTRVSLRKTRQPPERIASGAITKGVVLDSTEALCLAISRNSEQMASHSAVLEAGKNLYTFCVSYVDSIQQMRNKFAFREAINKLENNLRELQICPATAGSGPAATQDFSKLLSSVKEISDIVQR
# Sequence of UniProt P07949 (whole entry, unmodified, looked up): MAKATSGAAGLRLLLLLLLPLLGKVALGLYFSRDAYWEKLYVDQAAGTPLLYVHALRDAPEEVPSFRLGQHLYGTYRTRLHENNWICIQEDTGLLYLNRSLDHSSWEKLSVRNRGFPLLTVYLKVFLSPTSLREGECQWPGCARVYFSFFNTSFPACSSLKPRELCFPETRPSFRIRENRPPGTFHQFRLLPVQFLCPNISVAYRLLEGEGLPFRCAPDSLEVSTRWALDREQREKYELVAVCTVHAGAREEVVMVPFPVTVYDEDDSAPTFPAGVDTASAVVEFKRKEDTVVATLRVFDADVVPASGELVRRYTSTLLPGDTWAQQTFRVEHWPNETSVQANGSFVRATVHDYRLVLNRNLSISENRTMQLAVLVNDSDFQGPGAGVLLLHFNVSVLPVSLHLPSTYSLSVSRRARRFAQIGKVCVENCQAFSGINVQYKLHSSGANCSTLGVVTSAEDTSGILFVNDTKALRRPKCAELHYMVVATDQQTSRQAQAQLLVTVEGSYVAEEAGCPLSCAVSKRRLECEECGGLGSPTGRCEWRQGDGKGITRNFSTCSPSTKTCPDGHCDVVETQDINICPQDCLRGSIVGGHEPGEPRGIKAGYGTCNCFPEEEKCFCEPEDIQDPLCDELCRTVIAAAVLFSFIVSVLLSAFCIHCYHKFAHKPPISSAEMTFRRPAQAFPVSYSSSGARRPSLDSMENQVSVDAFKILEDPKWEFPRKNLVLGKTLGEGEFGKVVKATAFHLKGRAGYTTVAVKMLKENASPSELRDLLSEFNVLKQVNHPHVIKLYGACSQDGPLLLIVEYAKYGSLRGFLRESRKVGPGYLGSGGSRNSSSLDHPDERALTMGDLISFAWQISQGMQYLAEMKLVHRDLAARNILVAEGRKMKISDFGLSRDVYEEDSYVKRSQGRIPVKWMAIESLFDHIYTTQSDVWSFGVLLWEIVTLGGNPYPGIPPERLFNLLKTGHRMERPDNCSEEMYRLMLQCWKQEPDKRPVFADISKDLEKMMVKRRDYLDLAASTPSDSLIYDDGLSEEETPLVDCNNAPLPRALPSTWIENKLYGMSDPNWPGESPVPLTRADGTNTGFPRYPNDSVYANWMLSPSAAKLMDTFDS

# Series 1
# Compound: FC(F)(F)c1ccc2c(c1)nc(-c1cccnc1)n2C1CC1
# Concentration: 1 µM
target,test,how to read,remaining binding
"BRAF (Homo sapiens, UniProt P15056)","cell-free assay, competition with immobilised ligand",,100%
"EPHB6 (Homo sapiens, UniProt O15197)","cell-free assay, competition with immobilised ligand",,100%
"CDK9 (Homo sapiens, UniProt P50750)","cell-free assay, competition with immobilised ligand",,100%
"MAP3K5 (Homo sapiens, UniProt Q99683)","cell-free assay, competition with immobilised ligand",,96%
"FLT4 (Homo sapiens, UniProt P35916)","cell-free assay, competition with immobilised ligand",,91%
"ALK (Homo sapiens, UniProt Q9UM73)","cell-free assay, competition with immobilised ligand",,100%
"RET (Homo sapiens, UniProt P07949, V804M)","cell-free assay, competition with immobilised ligand",,100%
"SYK (Homo sapiens, UniProt P43405)","cell-free assay, competition with immobilised ligand",,100%
"PIP5K1A (Homo sapiens, UniProt Q99755)","cell-free assay, competition with immobilised ligand",,71%
"Tyrosine-protein kinase ABL1, phosphorylated (ABL1, Homo sapiens, UniProt P00519, F317I)",binding,,100%
"PIK3CA (Homo sapiens, UniProt P42336, E545K)","cell-free assay, competition with immobilised ligand",,100%
"CSNK1G1 (Homo sapiens, UniProt Q9HCP0)","cell-free assay, competition with immobilised ligand",,100%
"FLT3 (Homo sapiens, UniProt P36888, N841I)","cell-free assay, competition with immobilised ligand",,100%
"STK17B (Homo sapiens, UniProt O94768)","cell-free assay, competition with immobilised ligand",,100%
"CDK5 (Homo sapiens, UniProt Q00535)","cell-free assay, competition with immobilised ligand",,100%
"RIPK2 (Homo sapiens, UniProt O43353)","cell-free assay, competition with immobilised ligand",,100%
"CDK19 (Homo sapiens, UniProt Q9BWU1)","binder, KINOMEscan competition binding",baseline: DMSO,100%
"CDK11B (Homo sapiens, UniProt P21127)","cell-free assay, competition with immobilised ligand",,100%
"GRK2 (Homo sapiens, UniProt P25098)","cell-free assay, competition with immobilised ligand",,100%
"CDK4 (Homo sapiens, UniProt P11802)","cell-free assay, competition with immobilised ligand",,100%
"PNCK (Homo sapiens, UniProt Q6P2M8)","cell-free assay, competition with immobilised ligand",,100%

# Series 2
# Host: mouse
# Medium: microsomes or S9
# Concentration: 2 µM
# Time: 0.5 h
Compound,remaining compound [%]
Cc1c(CC(=O)O)c2ccccc2n1C(=O)c1ccc(N2CCOCC2)nc1,56.5
CC(C)(C)C1CCc2onc(C(=O)NCCCOc3ccccc3F)c2C1 (centres unmarked),0.715
CCc1ccc(/C=N/n2c(C)nnc2-n2nc(C)cc2C)cc1,0.0477
Cc1ccc(CNS(=O)(=O)c2cc(-c3ccc(=O)[nH]n3)cc(C)c2C)cc1,0.772
C=C(C)C1Cc2c(C)nn(-c3cccc4ccccc34)c2C1 (centres unmarked),0.05
COc1cc(=O)n(-c2ccccc2)cc1C(=O)N1CCC(N2CCc3ccccc3C2)C1 (centres unmarked),73.6
COc1ccc2[nH]cc(CCNC(=O)CCC(=O)N3Cc4cccn4-c4ccccc43)c2c1,3.24
CC(C)CN1CCN(S(=O)(=O)c2ccc(-c3nnc(C(C)C)o3)o2)CC1,0.509
CN(CCC1CCOCC1)S(=O)(=O)c1cnn(C)c1,98.5
CCOc1ccc(OCC)c(NC(=O)c2cc(S(=O)(=O)N3CCOCC3)cn2C)c1,22.8
CC(C)CCN1CC2(CCCN(C(=O)c3ccc(=O)n(C)n3)C2)CCC1=O (centres unmarked),56.4

# Series 3
# Compound: c1ccc(-c2cnc(Nc3ccc(OCCN4CCCC4)cc3)s2)cc1
# Read-out: enzyme activity
# Mode: inhibitor
# Concentration: 0.5 µM
# Baseline: control
target,remaining activity [%]
"CAMKK2 (Homo sapiens, UniProt Q96RR4)",89.4
"Cyclin-dependent kinase 4, with cyclin D1 (CDK4, Homo sapiens, UniProt P11802)",61.2
"MAPK9 (Homo sapiens, UniProt P45984)",144
"cGMP-dependent protein kinase 1, isoform beta (PRKG1, Homo sapiens, UniProt Q13976)",96.7
"STK39 (Homo sapiens, UniProt Q9UEW8)",75.4
"NEK2 (Homo sapiens, UniProt P51955)",90.6
"IKBKB (Homo sapiens, UniProt O14920)",98.1
"CHEK2 (Homo sapiens, UniProt O96017)",99.4
"STK10 (Homo sapiens, UniProt O94804)",76.9
"PRKCA (Homo sapiens, UniProt P17252)",106
"Protein kinase C beta type, isoform beta-I (PRKCB, Homo sapiens, UniProt P05771)",108
"MAP3K3 (Homo sapiens, UniProt Q99759)",99.2
"GRK3 (Homo sapiens, UniProt P35626)",103
"TGFBR1 (Homo sapiens, UniProt P36897)",97
"DAPK1 (Homo sapiens, UniProt P53355)",95.1
"Tyrosine-protein kinase Lyn, isoform B (LYN, Homo sapiens, UniProt P07948)",87.5
"OXSR1 (Homo sapiens, UniProt O95747)",85.3
"DAPK2 (Homo sapiens, UniProt Q9UIK4)",90.3
"CAMK2D (Homo sapiens, UniProt Q13557)",48.2
"TGFBR2 (Homo sapiens, UniProt P37173)",129
"PRKACA (Homo sapiens, UniProt P17612)",102
"IKBKE (Homo sapiens, UniProt Q14164)",81.6
"Cyclin-dependent kinase 5, with p25 (CDK5, Homo sapiens, UniProt Q00535)",80.7

# Series 4
# SMILES: COc1ccc2[nH]c3c4[nH]c5ccc(OC)cc5c4c4c(c3c2c1)C(=O)NC4=O
# Read-out: binding
# Concentration: 1 µM
target,test,remaining binding
"ABL1 (Homo sapiens, UniProt P00519, Y253F)",,53%
"FGFR1 (Homo sapiens, UniProt P11362)",competition with immobilised ligand,100%
"STK38 (Homo sapiens, UniProt Q15208)",,57%
"HIPK3 (Homo sapiens, UniProt Q9H422)",competition with immobilised ligand,44%
"MET (Homo sapiens, UniProt P08581)",,78%
"BMX (Homo sapiens, UniProt P51813)",competition with immobilised ligand,99%
"EPHA8 (Homo sapiens, UniProt P29322)",competition with immobilised ligand,87%
"EPHB1 (Homo sapiens, UniProt P54762)",competition with immobilised ligand,77%
"MAP4K5 (Homo sapiens, UniProt Q9Y4K4)",competition with immobilised ligand,51%
"CLK4 (Homo sapiens, UniProt Q9HAZ1)",,57%
"FYN (Homo sapiens, UniProt P06241)",competition with immobilised ligand,84%
"BMPR1B (Homo sapiens, UniProt O00238)",competition with immobilised ligand,56%
"DAPK1 (Homo sapiens, UniProt P53355)",,22%

# Repeated from above (series 1):
target,test,how to read,remaining binding
"PIK3CA (Homo sapiens, UniProt P42336, E545K)","cell-free assay, competition with immobilised ligand",,100%
"CSNK1G1 (Homo sapiens, UniProt Q9HCP0)","cell-free assay, competition with immobilised ligand",,100%
"FLT3 (Homo sapiens, UniProt P36888, N841I)","cell-free assay, competition with immobilised ligand",,100%
"STK17B (Homo sapiens, UniProt O94768)","cell-free assay, competition with immobilised ligand",,100%
"CDK5 (Homo sapiens, UniProt Q00535)","cell-free assay, competition with immobilised ligand",,100%
"RIPK2 (Homo sapiens, UniProt O43353)","cell-free assay, competition with immobilised ligand",,100%
"CDK19 (Homo sapiens, UniProt Q9BWU1)","binder, KINOMEscan competition binding",baseline: DMSO,100%
"CDK11B (Homo sapiens, UniProt P21127)","cell-free assay, competition with immobilised ligand",,100%
"GRK2 (Homo sapiens, UniProt P25098)","cell-free assay, competition with immobilised ligand",,100%
